Results pooled from the literature.
Lines come from different studies, so protocols differ.

| SMILES | host | matrix | route | dose | baseline | endpoint | value |
| --- | --- | --- | --- | --- | --- | --- | --- |
| Cc1cc(C)c(CNC(=O)c2cc(Cl)c3c(c2C)O[C@@](C)([C@H]2CC[C@H](N(C)C)CC2)O3)c(=O)[nH]1 | moderate hepatic impairment |  | oral | dose not given | normal hepatic function | unbound AUCss increase | 29% |
| CC(=O)CC(c1ccccc1)c1c(O)c2ccccc2oc1=O (stereo not drawn) | Sprague-Dawley rat, male |  |  |  |  | unbound intrinsic clearance | 16.8 mL/min/kg |
| CCOCC(=O)N1CCC[C@H](C(=O)NCc2nc(-c3ccc(C)nc3)cs2)C1 | Sprague-Dawley rat, male | plasma | intravenous | 1 mg/kg |  | unbound hepatic CLint | 38 mL/min/kg |
| CN(C)C(=O)c1cc2cnc(Nc3ccc(N4CCNCC4)cn3)nc2n1C1CCCC1 | Sprague-Dawley rat male | plasma | intraperitoneal | 100 mg/kg |  | unbound Cmax | 2820 ng/mL |
| CCCC[C@@H]1NC(=O)[C@H](Cc2ccc(O)cc2)NC(=O)[C@@H]2CCCN2C(=O)[C@H](CC(=O)O)NC(=O)[C@H](C)NC(=O)[C@H](Cc2ccccc2)NC(=O)[C@@H]2CSCCC(=O)N3CN(CN(C3)C(=O)CCSC[C@@H](C(=O)N[C@@H](CNC(=O)CCOCCOCCOCCOCCOCCOCCOCCOCCOCCOCCOCCOCCn3cc(CCC(=O)NCCC(=O)N(C)CC(=O)N(C)CC(=O)N(C)CC(=O)N(C)CC(=O)N(C)CC(=O)N(C)CC(=O)N(C)CC(=O)N(C)CC(=O)N(C)CC(=O)N(C)CC(=O)N[C@H]4CSCCC(=O)N5CN6CN(C5)C(=O)CCSC[C@H](NC(=O)[C@@H](CC(=O)O)NC(=O)[C@H](Cc5cccc7ccccc57)NC(=O)[C@@H]5CCCN5C4=O)C(=O)N[C@@H](CCSC)C(=O)N[C@@H](CCCCNC(=N)N)C(=O)N[C@@H](CC(=O)O)C(=O)N[C@@H](Cc4c[nH]c5ccccc45)C(=O)N[C@@H](CO)C(=O)N[C@@H]([C@@H](C)O)C(=O)N4CCC[C@H]4C(=O)N4C[C@H](O)C[C@H]4C(=O)N[C@@H](Cc4c[nH]c5ccccc45)C(=O)N[C@H](C(N)=O)CSCCC6=O)nn3)C(N)=O)NC1=O)C(=O)CCSC[C@H](NC(C)=O)C(=O)N[C@@H](CC(C)(C)C)C(=O)N1CCC[C@H]1C(=O)N[C@@H](CCC(=O)O)C(=O)N[C@H](C)C(=O)N1CCC[C@H]1C(=O)N[C@@H](Cc1ccc(O)cc1)C(=O)N2 | Sprague-Dawley rat |  |  |  |  | unbound Vdss | 1.4 L/kg |
| CCONC(=O)N1CCC[C@H](C(=O)NCc2nc(-c3ccc(C#N)cc3)cs2)C1 | Sprague-Dawley rat, male | plasma | oral | 3 mg/kg |  | unbound AUC | 0.2 µM·h |
| CCCC[C@@H]1NC(=O)[C@H](Cc2ccc(O)cc2)NC(=O)[C@@H]2CCCN2C(=O)[C@H](CC(=O)O)NC(=O)[C@H](C)NC(=O)[C@H](Cc2ccccc2)NC(=O)[C@@H]2CSCCC(=O)N3CN(CN(C3)C(=O)CCSC[C@@H](C(=O)N[C@@H](C)C(N)=O)NC1=O)C(=O)CCSC[C@H](NC(C)=O)C(=O)N[C@@H](CC(C)(C)C)C(=O)N1CCC[C@H]1C(=O)N[C@@H](CCC(=O)O)C(=O)N[C@H](CCCCNC(=O)CCc1cn(CCOCCOCCOCCOCCOCCOCCOCCOCCOCCOCCNC(=O)CCOCCN(CCOCCC(=O)NCCOCCOCCOCCOCCOCCOCCOCCOCCOCCOCCn3cc(CCC(=O)NCCCC[C@H]4NC(=O)[C@H](CCC(=O)O)NC(=O)[C@@H]5CCCN5C(=O)[C@H](CC(C)(C)C)NC(=O)[C@@H](NC(C)=O)CSCCC(=O)N5CN6CN(C5)C(=O)CCSC[C@H](NC(=O)[C@H](Cc5ccc(O)cc5)NC(=O)[C@@H]5CCCN5C4=O)C(=O)N[C@@H](Cc4ccccc4)C(=O)N[C@@H](C)C(=O)N[C@@H](CC(=O)O)C(=O)N4CCC[C@H]4C(=O)N[C@@H](Cc4ccc(O)cc4)C(=O)N[C@@H](CCCC)C(=O)N[C@H](C(=O)N[C@@H](C)C(N)=O)CSCCC6=O)nn3)CCOCCC(=O)NCCOCCOCCOCCOCCOCCOCCOCCOCCOCCOCCn3cc(CCC(=O)N[C@H]4CSCCC(=O)N5CN6CN(C5)C(=O)CCSC[C@H](NC(=O)[C@@H](CC(=O)O)NC(=O)[C@H](Cc5cccc7ccccc57)NC(=O)[C@@H]5CCCN5C4=O)C(=O)N[C@@H](CCSC)C(=O)N[C@@H](CCCCNC(=N)N)C(=O)N[C@@H](CC(=O)O)C(=O)N[C@@H](Cc4c[nH]c5ccccc45)C(=O)N[C@@H](CO)C(=O)N[C@@H]([C@@H](C)O)C(=O)N4CCC[C@H]4C(=O)N4C[C@H](O)C[C@H]4C(=O)N[C@@H](Cc4c[nH]c5ccccc45)C(=O)N[C@H](C(N)=O)CSCCC6=O)nn3)nn1)C(=O)N1CCC[C@H]1C(=O)N[C@@H](Cc1ccc(O)cc1)C(=O)N2 | Sprague-Dawley rat |  |  |  |  | unbound clearance | 51 mL/min/kg |
| O=C(O)Cc1ccccc1Nc1c(Cl)cccc1Cl | Sprague-Dawley rat, male |  |  |  |  | unbound intrinsic clearance | 5230 mL/min/kg |
| CCOCC(=O)N1CCC[C@H](C(=O)NCc2nc(-c3ccc(C#N)nc3)cs2)C1 | Sprague-Dawley rat, male | plasma | oral | 3 mg/kg |  | unbound AUC | 1.1 µM·h |
